Published values pooled from the literature.
A part holds a random share of what one study measured.

Series 1 — method: protein-binding microarray; form: double-stranded DNA, one strand shown; medium: in vitro; concentration: 2200 nM top; setting: 60-bp whole probe; with: salmon DNA 0.4 mg/ml; baseline: random background probes; direction: higher = stronger binding; constant ends, left off below: GCCTAGCAC … GTCTTGATTCGCTTGACGCTGCTG
Target: Interferon regulatory factor 7, full length, phosphomimetic (IRF7, Homo sapiens, UniProt Q92985, residues 1-503, S471D/S472D/S475D/S476D/S477D/S483D/S484D/S487D)
Residues (chain): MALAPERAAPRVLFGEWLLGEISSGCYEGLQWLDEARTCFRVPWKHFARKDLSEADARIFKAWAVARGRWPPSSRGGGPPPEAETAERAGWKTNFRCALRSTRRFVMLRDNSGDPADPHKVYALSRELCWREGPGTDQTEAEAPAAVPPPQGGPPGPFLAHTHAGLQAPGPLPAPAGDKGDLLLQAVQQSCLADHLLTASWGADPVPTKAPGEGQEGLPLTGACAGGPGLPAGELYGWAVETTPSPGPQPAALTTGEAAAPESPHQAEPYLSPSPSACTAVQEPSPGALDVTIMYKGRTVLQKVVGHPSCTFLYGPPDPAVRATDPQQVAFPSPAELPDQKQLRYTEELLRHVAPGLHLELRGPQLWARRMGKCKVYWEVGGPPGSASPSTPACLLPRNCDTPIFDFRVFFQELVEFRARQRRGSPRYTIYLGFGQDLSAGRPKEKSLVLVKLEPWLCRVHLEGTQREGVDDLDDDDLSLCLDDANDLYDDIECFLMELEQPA
Strand | fitted relative affinity
AGACTTCTCCATTTTTCTAGGTGCTAG | 1.03 z-score
GACGTTCTCGGTCTCGGGACGTGCTAG | 0.651 z-score
CCAGTTCTGGGAAATATTTACGTGCTA | 0.0696 z-score
TTAGGTATCGGGACTGGTTTAGTGCTA | -0.239 z-score
TTAGGACTGGGATTTCGGTTAGTGCTA | 1.48 z-score
GACTGTTTCGACTTTCGGGACGTGCTA | 7.11 z-score
TTAGGACTGCTATTCCTTTAGTGCTAG | 0.433 z-score
TGCTTTCTCTTTCATTGCTGCGTGCTA | 7.69 z-score
GACGGTATCGGTTTCGGGAGGTGCTAG | 3.31 z-score
GACGGTCTCGATTTCGGGACGTGCTAG | 1.75 z-score
GACGGACTCGGTCTCGGGACGTGCTAG | -0.473 z-score
TCACTTTCTGTTTTCTCACTGTGCTAG | 11.9 z-score
GACGGTCTCTGTATCGGGACGTGCTAG | 0.323 z-score
TTAGATATCAGCTTCGATTAGTGCTAG | 0.239 z-score
TCAAGGCTGTGTTTTCACACTGTGCTA | 0.252 z-score
GACGGTATCGGGTTTCGGGGCGTGCTA | 1.03 z-score
GACGGTTTCGACTACCGGGACGTGCTA | 3.67 z-score
GACGATTACAGTATCGAGACGTGCTAG | 0.325 z-score

Series 2 — method: protein binding microarray; form: double-stranded DNA, one strand shown; medium: in vitro; concentration: not given; baseline: not given; direction: higher = stronger binding
Target: Histone acetyltransferase KAT6A, winged helix 2, GST fusion (KAT6A, Homo sapiens, UniProt Q92794, residues 85-181)
Setting: 8-mer, flanks averaged, mean of 2 arrays, mostly near background
Residues (chain): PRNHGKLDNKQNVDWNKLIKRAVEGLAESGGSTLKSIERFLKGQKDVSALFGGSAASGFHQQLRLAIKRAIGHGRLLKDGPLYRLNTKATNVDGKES
Strand | E-score
TAAGTCAA | -0.0774
CGGTGAGA | 0.103
AAACGCGG | 0.0645
ATCAGCTA | -0.0217
ACCCTGAA | 4e-05
TAAGCGCA | 0.0751
AGCAGGCT | -0.0562
CAATGATC | -0.0926
AAGGGAGC | 0.0236
AGGGCCCC | -0.082
ATGACCAG | -0.103
CAGTACCC | -0.0406
AGGAGGTG | -0.0801
GTCGCTAA | 0.0845
GGTAGCGA | -0.0652
CCGAACAA | -0.038
CACCCCGC | 0.194
AAGGTCCA | 0.0782
AACATTGT | -0.23
CAGAGTTC | -0.0286
AAAAGGAA | 0.148
GCCGACTA | 0.00484

Series 3 — method: RNA Bind-n-Seq; form: RNA; medium: in vitro; concentration: 200 nM; setting: whole 134-nt RNA, ends assumed; with: 150 mM LiCl; baseline: input library; direction: higher = stronger binding; library: 7-deaza-guanosine replaces G
Target: Fragile X messenger ribonucleoprotein 1, C-terminal low-complexity region (Fmr1, Mus musculus, UniProt P35922)
Constant ends, left off below: GGGAGUUCUACAGUCCGACGAUC … UGGAAUUCUCGGGUGUCAAGG
Strand | log2 enrichment
CAAGUCCUGUGCUACACAUCGUAUGUACCGAAUCGGGAAAAAAAGGGUGGGAGGGAAAGUAUUAUGUUACGCCGUUCGGAUCUGCACUUC | -0.41
UGUUUAUCCAACAUAUGAUUUUGCCUGCCCCAUAGUUGACAGCAUCGAAGGUGUUACACAUGCCCUGAGAACAACAGAAUACCAUGACAG | 0.0825
AGUCCUGUGCUACACAUCGUAUGUACCGAAUCGGAAAAGGGGAAAAGGGGAAAAGGGGAAAGUAUUAUGUUACGCCGUUCGGAUCUGCAC | 0.244
CUGUGCUACACAUCGUAUGUACCGAAUCGGAAAAAAAGGGAAAAAAAGGGAAAAAAAGGGGAAAGUAUUAUGUUACGCCGUUCGGAUCUG | -0.331
ACCAUGCAGGUGGGCAUCUUUGGGGAGUGGGGCAAGGGGGGGAUAGGGAGGGGGGUAACACUUUGGGAACAGGUGGUCCCAGGUCGUUUC | 1.35
AGUCCUGUGCUACACAUCGUAUGUACCGAAUCGGGGUGGGGUUUUUUUGGGGAGGGGAAAGUAUUAUGUUACGCCGUUCGGAUCUGCACU | 0.327
CCUCAAGUCCUGUGCUACACAUCGUAUGUACCGAAUCGGGUGGUGGGUGGGGAAAGUAUUAUGUUACGCCGUUCGGAUCUGCACUUCCAG | -0.301
UGGCCCUGGUGGCAUGCGGGGAGGAAGAGGUGGCCUCAUGGAUCGUGGUGGUCCCGGUGGAAUGUUCAGAGGUGGGCGUGGUGGAGACAG | -0.142
CACAGACAACACGCACCCACACAGACACAGAGGGAAGGGGUUGGGAUGGGGACAGGGUGCACAACAGGGCGGGGUAGGACCCCAGCCCCU | 0.116
CACAGACAACACGCACCCACACAGACACAGAGGGAAGGGGUUGGGAUGGGGAUAGGGUGCACAGCAGGGCGGGGUAGGACCCCAGCCCCU | -0.0458
GUCCUGUGCUACACAUCGUAUGUACCGAAUCAAAUUUAAACCCCCCCAAAUUUUUAAAAAAGUAUUAUGUUACGCCGUUCGGAUCUGCAC | 1.56

Series 4 — method: RNA Bind-n-Seq; form: RNA; medium: in vitro; concentration: 365 nM; baseline: no-protein control; direction: higher = stronger binding
Target: RNA binding protein fox-1 homolog 2, RRM domain, GST-SBP tag (RBFOX2, Homo sapiens, UniProt O43251-10, residues 100-194)
Setting: natural RNA segment, single round, ends assumed
Constant ends, left off below: GGGAGUUCUACAGUCCGACGAUC … UGGAAUUCUCGGGUGCCAA
Construct (chain): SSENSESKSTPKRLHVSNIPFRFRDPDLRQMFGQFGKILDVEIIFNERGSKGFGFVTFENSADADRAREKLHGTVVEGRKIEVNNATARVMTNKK
Strand | RBNS enrichment (R)
GAGAGACAAUCUAAACAUUCUCUUAGGCUGCAGAUAAGAGAAGUAGGCUCCAUUCCAAAGUGGGAAAGAAAUUCUGCUAGCAUUGUUUAAAUCAGGCAAAAUUUGUUCCU | 0.844
CCUCUGGCAUGGCUUUCCUUUCCCAUCGCCUUCGGAGGCCAUUUUGUCUUGAAGUCAAUGCAUGCUCGUGCUGUUCGACAGUAACCUACUCUGCCUUCUCCACCUCCGAG | 7.3
AUGGAUCUGAAGUUCUCAGCCCUCACCCCACACUGCUGGAAUCUUCUGUAGAGCUGCCUGCCAAGCCACCUGAAACACAGUGGCUCCCUGUGACACUCAGGCCUCAGAUG | 0.533
CAACCCACAGGUUGAGAACUACUGCUCUAAGCCAAAGAUGAAAAUGGGAUUUACAUGCAGAACAAAAGAUACUGUCAAAGGCUGUGGGGUUGCAGCUCAAAUAUUUAAGU | 0.732
AACCAAAUUUGAAUACUGCAAAUUUGUAGGAGUUACUAGGUUAGCAAUUAGUCCAUACAUCCAUAAGCCUGAUGAGUUGAAAUUGCAGUUUGAGAAGUGAAUUAACCUUA | 0.96
CAUCAUCCCUGUAAGCAGAGAGAACCCUAGUCACUAAAGGUGGGAGCCCUUUACCUCUCAUGUUCCACUUUGAAAAGUUUGUAUUGACAUUUGGUUCAUAUCUUGUGUAU | 0.548
UCGGCCUAUAUCUGACCAUUAGGUCCCUCCCCUUCAGUAGGUCCUGGAGACAUAGGGGCUGCUACCAGGGGAGGAACACACCUGGGUGUGGGGCAGCUUCUGGCAUCUUC | 0.258
UGCUCUCCAUUGACCUGGACAAAGUAGUGUUACCCAACUUUCGAUCCAAUCGCCCUCAAGUGAGACCUUUGUCCCCUGGAGAGAGUGGUGCCUGGGACAUUCCUGGAGGG | 0.342
GGCAAAGCUUUGAGUGCCCAGAAGGGAAAGCUGUACCAGUUGCUAACCUGUCUUGUUUCAGGAGCCACCAUGUUUUUUUUUCAGUGUUAACAACAAUCAUGAUAAUUAAA | 0.801
AGCAAGUGGUGCUUCCUUCUCAGCACGUCUCUAGGAAGCAUGGACACCCGAGUGUGGCUUUUCUCAAAGAAAGGUGAAGAAGGGGCCUCAGUUCUUACAGUGGGGACCAC | 9.23
AUAACCUGGGUGGGCUUUUGGAAAAUCUUUGAGAAGUUGAUUUCAUAGGCUGUAGAACAGUAAAGUGGGAACUGGGCGGACUUUUCUAACAGUCGUACUUUUAUAAAGCG | 0.615
UUAACGCAAAAAUCCACAGUCCAAAGUCUCAUCUGAGACAAGGCAAGUCCCUUCCACCUAUGAGCCUGUAAAAUCAAAAGCAAGCUAGUUACUUCCUAGAUACCAACAGG | 0.526
